Assay results gathered from unrelated publications.
Compare with care: the assays were run in different laboratories. ± gives the spread as reported. Converted amounts (≈) assume the structure as drawn.

| Compound | assay | system | setting | scale | measurement | value |
| --- | --- | --- | --- | --- | --- | --- |
| COc1cc(/C2=C/CCCCc3c2ccc(OC)c3OP(=O)([O-])[O-])cc(OC)c1OC.[Na+].[Na+] |  | SCID mice, non-tumour-bearing | 120 mg/kg, dose escalation 60 to 150 mg/kg |  | tolerability | not toxic |
| O=C(c1ccc(F)c(F)c1Nc1ccc(I)cc1F)N1CC(O)([C@@H]2CCCCN2)C1 | refers to: retinal detachment | human patients | oral, dose not given, dose escalation, suspension, grade G4 |  | treatment-related adverse events | 0% |
| [123I]c1cncc(OC[C@@H]2CCN2)c1 | SPECT | human, high plasma nicotine, hippocampus | intravenous, dose not given | baseline: plasma | tissue/plasma ratio | 14 |
| CC(C)C(=O)OC[C@H]1O[C@@H](n2ccc(NO)nc2=O)[C@H](O)[C@@H]1O |  | rat brain dialysate | 5 ng/mL, 6 h, 10 °C, autosampler stability, with: NHC 25 ng/mL |  | remaining compound | 99.25 ± 0.36% |
| CCCCCCCCCCCC[N+](C)(C)CCCCCCCCCCCC | ultrafiltration | human serum |  |  | unbound fraction in blood | 0.09 |
| Cc1ccc(OS(=O)(=O)O)cc1 |  | human hemodialysis patients, plasma | pre-treatment | baseline: hemodialysis over normal subjects | total plasma concentration ratio | 11 |
| Clc1ccc(-c2c(Cl)ccc(Cl)c2Cl)c(Cl)c1 |  | rat liver microsomes | 50 µM, 30 min, remaining parent PCB |  | enantiomeric fraction | 0.43 |
| CC[C@H](C)[C@H](NC(=O)[C@H](CO)NC(=O)[C@H](C)NC(=O)[C@@H](NC(=O)CNC(=O)[C@H](CO)NC(=O)[C@@H](NC(=O)[C@@H](NC(=O)[C@H](Cc1c[nH]cn1)NC(=O)[C@@H]1CCCN1C(=O)[C@@H](NC(=O)[C@H](CC(C)C)NC(=O)[C@H](CO)NC(=O)[C@H](CC(C)C)NC(=O)[C@@H](N)Cc1ccccc1)[C@@H](C)CC)[C@@H](C)CC)C(C)C)C(C)C)C(=O)N[C@@H](C)C(=O)N[C@@H](CCCCN)C(=O)N[C@@H](Cc1c[nH]cn1)C(=O)N[C@@H](Cc1ccccc1)C(N)=O | UPLC-MS/MS | rat plasma | 1.6 µg/mL, three freeze-thaw cycles |  | concentration found | 1580 ng/mL |
| CSCC[C@@H]1NC(=O)[C@H](CC(=O)O)NC(=O)CNC(=O)[C@H](CCCNC(=N)N)NC(=O)[C@H](C)NC(=O)[C@H](CCC(=O)O)NC(=O)[C@H](CCCNC(=N)N)NC(=O)[C@@H]2CSSC[C@@H]3NC(=O)[C@H](CO)NC(=O)[C@H]([C@@H](C)O)NC(=O)[C@@H]4CCCN4C(=O)[C@H](C)NC(=O)[C@H](Cc4c[nH]c5ccccc45)NC(=O)[C@H](CC(=O)O)NC(=O)CNC(=O)[C@H](CCCNC(=N)N)NC(=O)CNC(=O)[C@H](CCC(N)=O)NC(=O)[C@@H]4CCCN4C(=O)[C@@H](NC(=O)CNC(=O)C(C)F)CSSC[C@H](NC(=O)CNC(=O)[C@H](C)NC(=O)[C@H](CC(C)C)NC(=O)[C@H](CSSC[C@@H](C(=O)NCC(N)=O)NC(=O)[C@H]([C@@H](C)O)NC(=O)[C@H](CCCNC(=N)N)NC(=O)[C@@H]4CCCN4C1=O)NC(=O)[C@H](CC(=O)O)NC(=O)[C@H](CO)NC(=O)[C@H](CC(=O)O)NC(=O)[C@H](CCC(N)=O)NC(=O)[C@H](CO)NC3=O)C(=O)N[C@@H](C(C)C)C(=O)N2 (stereo partly shown) [fluorine-18 labelled] |  | nude mice U-87 MG xenograft, lungs | intravenous, 0.5 h |  | tissue uptake | 1.73 ± 0.27 %ID/g |
| CC[C@H](C)[C@H](NC(=O)[C@@H](N)CCCNC(=N)N)C(=O)N[C@H](C(=O)N1CCC[C@H]1C(=O)N[C@@H](C)C(N)=O)C(C)C |  | human, plasma | intravenous, 3 mg/kg, single dose, healthy volunteers |  | AUC(0-t) | 1.04 µg·h/mL |
| CC1(C)S[C@@H]2[C@H](NC(=O)[C@H](C(=O)O)c3ccsc3)C(=O)N2[C@H]1C(=O)O |  | rat plasma | 2400 ng/mL, three freeze-thaw cycles | baseline: nominal concentration | relative error | 1.6% |
| NC(=O)c1nc(F)c[nH]c1=O | UV-Vis spectrophotometry | supercritical CO2 | 120 min, 318 K, 15 MPa, 743.17 kg/m^3 |  | solubility | 213 µg/mL (≈ 1360 µM) |
| CC[C@H](C)[C@H](NC(=O)[C@H](CC(C)C)NC(=O)[C@H](Cc1c[nH]c2ccccc12)NC(=O)[C@H](CCC(N)=O)NC(=O)[C@@H](NC(=O)[C@H](Cc1ccccc1)NC(=O)[C@H](C)NC(=O)[C@H](CCCCNC(=O)COCCOCCNC(=O)COCCOCCNC(=O)CC[C@H](NC(=O)CCCCCCCCCCCCCCCCCCC(=O)O)C(=O)O)NC(=O)[C@H](CCC(N)=O)NC(=O)[C@H](C)NC(=O)[C@@H](NC(=O)[C@H](CCCCN)NC(=O)[C@H](CC(=O)O)NC(=O)[C@H](CC(C)C)NC(=O)C(C)(C)NC(=O)[C@@H](NC(=O)[C@H](CO)NC(=O)[C@H](Cc1ccc(O)cc1)NC(=O)[C@H](CC(=O)O)NC(=O)[C@H](CO)NC(=O)[C@@H](NC(=O)[C@H](Cc1ccccc1)NC(=O)[C@@H](NC(=O)CNC(=O)[C@H](CCC(=O)O)NC(=O)C(C)(C)NC(=O)[C@@H](N)Cc1ccc(O)cc1)[C@@H](C)O)[C@@H](C)O)[C@@H](C)CC)[C@@H](C)CC)C(C)C)C(=O)N[C@@H](C)C(=O)NCC(=O)NCC(=O)N1CCC[C@H]1C(=O)N[C@@H](CO)C(=O)N[C@@H](CO)C(=O)NCC(=O)N[C@@H](C)C(=O)N1CCC[C@H]1C(=O)N1CCC[C@H]1C(=O)N1CCC[C@H]1C(=O)N[C@@H](CO)C(N)=O |  | human, end-stage renal disease, plasma | subcutaneous, 5 mg single dose, geometric mean |  | CL/F | 0.892 mL/min |
| O=c1[nH]c(Cc2ccccn2)nc2c1cnn2C1CCOCC1 |  | male human, plasma | oral, 5 mg, single dose |  | Cmax | 56.4 nM |
| CCCCCOc1ccc(-c2cc(-c3ccc(C(=O)N[C@H]4C[C@@H](O)[C@@H](O)NC(=O)[C@@H]5[C@@H](O)[C@@H](C)CN5C(=O)[C@H]([C@H](O)CC(N)=O)NC(=O)[C@H]([C@H](O)[C@@H](O)c5ccc(O)c(OS(=O)(=O)O)c5)NC(=O)[C@@H]5C[C@@H](O)CN5C(=O)[C@H]([C@@H](C)O)NC4=O)cc3)no2)cc1 |  | human children aged 6-11 years, plasma | intravenous, 4.5 mg/kg once daily, day 7, geometric mean |  | AUCtau | 276 µg·h/mL |
| C[C@H](Cn1cnc2c(N)ncnc21)OCP(=O)(O)O | two-compartment model | Macaca nemestrina, male | subcutaneous, 10.6 mg/kg |  | distribution half-life (t1/2,alpha) | 1.11 h |
| CN[C@@](C)(C[18F])C(=O)O |  | SCID mouse U87 xenograft, heart | 30 min, post injection |  | tissue uptake | 4.5 ± 1.7 %ID/g |
| Cc1cc2c(C(C)C)c(O)c(O)c(C=O)c2c(O)c1-c1c(C)cc2c(C(C)C)c(O)c(O)c(C=O)c2c1O | cytochrome c release, ELISA | BALB/cByJ female mouse liver mitochondria | 30 min | baseline: alamethicin maximal release | EC20 | > 10 µM |
| c1cc2ccc3cccc4ccc(c1)c2c34 | HPLC-fluorescence | Wistar rat, male, lung | oral, 4 mg/kg, 24 h |  | tissue concentration | 14.2 ± 0.2 ng/g |
| CC(=O)N[C@H](CCCCNC(=O)C(C)F)C(=O)N[C@@H](CS)C(=O)N[C@@H](CS)C(=O)N[C@@H](CCC(=O)O)C(=O)N[C@@H](Cc1c[nH]cn1)C(=O)N[C@H](Cc1ccccc1)C(=O)N[C@@H](CCCNC(=N)N)C(=O)N[C@@H](Cc1c[nH]c2ccccc12)C(=O)N[C@@H](CS)C(=O)N[C@@H](CCCNC(=N)N)C(=O)N1CCC[C@H]1C(=O)N[C@H](C(N)=O)C(C)C (stereo partly shown) [fluorine-18 labelled] |  | C57BL/6 mice, male, B16-F10 tumour, heart | intravenous, 1 h |  | tissue uptake | 0.55 ± 0.03 %ID/g |
| CCc1cccc(CC)c1N(COC)C(=O)CCl | LC-MS/MS | herbicide solution | 2 h, 23 °C, with: 365 nm UV exposure |  | remaining amount | 0.58 ± 0.01% |
| CCCCc1oc2ccc(NS(C)(=O)=O)cc2c1C(=O)c1ccc(OCCCN(CCCC)CCCC)cc1 |  | beagle dog, female, persistent atrial fibrillation model | intravenous, 3 mg/kg, 0.5 h |  | peak QTcF change | 16 ± 11 ms |
